Measurements from different studies.
A part holds a random share of what one study measured. Changes are numbered by the printed parent chain.

Set 1
Target: Prothrombin, mature alpha-thrombin (F2, Homo sapiens, UniProt P00734)
Method: aptamer microarray, sandwich
Form: DNA with 2'F-ANA
Medium: in vitro
Concentration: 200 nM
Notes: whole 15-mer aptamer, many near background
Together with: Cy3 exosite-II aptamer, 400 nM
Reading: higher = stronger binding
Oligonucleotide: GGTTGGTGTGGTTGG
Modification	mean fluorescence intensity
2'F-ANA at 3 4 5 7 9 12 13 15	108 a.u.
2'F-ANA at 1 4 7 8 9 10 11 13 14	43.8 a.u.
2'F-ANA at 1 2 4 7 10 11 14	48.3 a.u.
2'F-ANA at 1 6 7 8 9 10 11 12 15	69.4 a.u.
2'F-ANA at 1 5 6 9 10 11 12 13 15	67.7 a.u.
2'F-ANA at 1 5 7 12 13 14	42.9 a.u.
2'F-ANA at 4 6 7 13 14 15	81.5 a.u.
2'F-ANA at 8 12	1040 a.u.
2'F-ANA at 1 2 8 9 10 11 12 13	59.3 a.u.
2'F-ANA at 1 2 4 5 6 8 9 11 12	111 a.u.
2'F-ANA at 1 8 10 11 13 14 15	51.5 a.u.
2'F-ANA at 2 3 6 7 8 10 11 13	338 a.u.
2'F-ANA at 1 2 4 6 7 8 9 12 13	180 a.u.
2'F-ANA at 1 2 4 9 12 13 14 15	52.1 a.u.
2'F-ANA at 2 3 5 6 10 14 15	52.6 a.u.
2'F-ANA at 1 3 5 7 9 10 11 12 13	58.8 a.u.
2'F-ANA at 4 5 10 13	42.8 a.u.
2'F-ANA at 1 2 7 8 10 12 13 14	51.2 a.u.
2'F-ANA at 1 2 4 5 8 11 12 13 14 15	57.2 a.u.
2'F-ANA at 2 3 5 6 7 8 10 11 13 15	59.8 a.u.
2'F-ANA at 1 2 4 5 6 9 10 11 12 13	51 a.u.

Set 2
Target: RNA binding protein fox-1 homolog 2, RRM domain, GST-SBP tag (RBFOX2, Homo sapiens, UniProt O43251-10, residues 100-194)
Method: RNA Bind-n-Seq
Form: RNA
Medium: in vitro
Concentration: 365 nM
Notes: natural RNA segment, single round, ends assumed
Baseline: no-protein control
Reading: higher = stronger binding
Constant ends, left off below: GGGAGUUCUACAGUCCGACGAUC … UGGAAUUCUCGGGUGCCAA
Residues (chain): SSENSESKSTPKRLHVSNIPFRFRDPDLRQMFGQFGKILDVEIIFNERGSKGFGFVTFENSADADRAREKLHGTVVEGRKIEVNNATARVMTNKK
Oligonucleotide	RBNS enrichment (R)
UGUAGGCUGCCAGAUGGGGGCUAUGAAUAUGCAGACUGCAGGAAGUGCAAUGGAUAUCUGUGAUGGGCUCUUCCGCCAGAAUGGUGGCUCUGGCUAUGUGCUGAAGCCAG	0.799
UGGCUUGUAGGAUUUUUAAGAGAGUGUGUCUACAGACAAGCAUUUUCUCUGUAGAGCAGCCACACGUUGUAUAAACAUAAACUGUAUGUGCAGUUAUUUAAAUUUGUUUC	1.07
GUAGACUGUGGAAGGUGUUGAUUAUGUUUCCUCUGGGGCCUGGUAGGAUGCUAAUCCCUAGAGCAGUUUACCAGCUAUGUGUGAAAUUGAAGCAGGUACCAUGGAUGACA	2.28
AGAAACUGGGCUCAUCACACCAAGGCAAAGCAACGGGCGAGUCUUCCUCCUUGUCCUAGUUACUGCCUAUGGAGGCAGUGUUUAGAUCAAGAAGGCCUCUCUUGCUCCCA	0.286
AUUUCUUAAACCGUUUUAUUUAGCCCUCCUUCCCUCUUUCUAGUUGGAAGCCAAAUGUACUCAUGAAAACAGCCACUCCUAUUCUGAGUCUUGGUUUCUUCACCUAGAAA	0.475
GUUACUAAGGUGCCUGCUAGCCAUUGUAUAAAAUUAAAACAUGAAGAAUAUUUUUUUUUUGAGCAUGGCUAGUGGAUUUAAAACAACACAUACCUGUCACUGCUGGAGUC	0.387
GCAUAGUUUGGAGCUAGGGAGGGACUGUCAGCCUGGAGGUUUGGAGACUCAUUCUGGAAUCUAGUGUGGGUCAAGCCAACUUCAGGGAGAGGCUGAGCCAGGGUAGGAGU	1.22
CUUAUCUGUUCCCUUCCUGGUUUCCAAAGAAGCCCUCUGUGAACAUCAUCAAAGCAUGGGUACCCCCAUCUGCAAGGGAUGGGCUUCAUCCUCCGCUAGUCCCUGUGUCC	0.339

Set 3
Target: Histone acetyltransferase KAT6A, winged helix 2, GST fusion (KAT6A, Homo sapiens, UniProt Q92794, residues 85-181)
Method: protein binding microarray
Form: double-stranded DNA, one strand shown
Medium: in vitro
Concentration: not given
Notes: 8-mer, flanks averaged, mean of 2 arrays, mostly near background
Baseline: not given
Reading: higher = stronger binding
Residues (chain): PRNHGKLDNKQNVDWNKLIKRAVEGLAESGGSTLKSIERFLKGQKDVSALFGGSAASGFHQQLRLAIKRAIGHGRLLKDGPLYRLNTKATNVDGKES
Oligonucleotide	E-score
AGAAGGCG	0.0192
GACTGGAA	-0.153
CCAACCCC	-0.0604
GGCGTTAA	-0.167
CACAGACG	-0.0918
AAAGTCCT	-0.0938
GTCGCTTA	0.0833
AATCAGTA	-0.00233
AGGGGCAC	0.0791
TGTAGACA	0.0398
CACCCACA	0.18
GTCCACTA	-0.132
AAATGAAA	0.215
TAGCCCTA	-0.14
CACTATGC	-0.0121
GAAGCTTC	-0.0509
CCCATCCC	0.0362
GGCAACAA	0.0518
CGGACCAC	0.162
ATTGAAGA	0.00831

Set 4
Target: CCNA2, cyclin fold, Cln2 fusion (human)
Method: yeast growth competition, sequencing
Medium: yeast
Notes: strong parent motif
Baseline: not given
Reading: higher = stronger binding
Parent: RBL1 docking peptide (human); GSAKRRLFGEDPP; partner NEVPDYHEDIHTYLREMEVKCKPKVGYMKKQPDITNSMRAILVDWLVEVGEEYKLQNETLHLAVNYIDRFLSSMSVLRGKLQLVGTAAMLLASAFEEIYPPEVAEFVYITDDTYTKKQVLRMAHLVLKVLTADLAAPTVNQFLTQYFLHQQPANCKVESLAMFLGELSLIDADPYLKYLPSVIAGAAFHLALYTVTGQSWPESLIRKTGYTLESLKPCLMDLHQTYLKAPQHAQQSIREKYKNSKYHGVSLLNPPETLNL
Substitution	normalised enrichment score
A3K	2.13
E10M	5.28
G1C	5.76
G1R	7.07
P13Q	5.31
R5A L7A	-0.684
P13E	4.65
K4Q	2.79
D11K	6.22
G9W	6.34
S2I	4.3
R5L	1.35
R5F	0.235
F8D	0.752
P13L	6.64
R6G	0.764
P13C	5.54
R5E	0.323
R5P	-0.142
S2Q	5.33
R6Y	0.745
G1N	5.57

A few entries again (set 3):
Oligonucleotide	E-score
CGGACCAC	0.162
ATTGAAGA	0.00831
AAAGTCCT	-0.0938
AGGGGCAC	0.0791
GAAGCTTC	-0.0509
CACTATGC	-0.0121
AGAAGGCG	0.0192
AAATGAAA	0.215
TAGCCCTA	-0.14
TGTAGACA	0.0398
CACAGACG	-0.0918
